{"data": "Published values collected from several papers", "note": "Numbered parts are unrelated; each lists some results of a single study."}
{"data": "Block 1", "target": "Ras GTPase-activating protein-binding protein 1, RRM domain (G3BP1, Homo sapiens, UniProt Q13283)", "method": "RNA Bind-n-Seq", "molecule type": "RNA", "medium": "in vitro", "concentration": "1 µM", "setting": "whole 134-nt RNA, ends assumed", "together with": "150 mM KCl", "baseline": "input library", "reading": "higher = stronger binding", "all sequences stand within": "GGGAGUUCUACAGUCCGACGAUC … UGGAAUUCUCGGGUGUCAAGG", "sequence of UniProt Q13283 (whole entry, looked up)": "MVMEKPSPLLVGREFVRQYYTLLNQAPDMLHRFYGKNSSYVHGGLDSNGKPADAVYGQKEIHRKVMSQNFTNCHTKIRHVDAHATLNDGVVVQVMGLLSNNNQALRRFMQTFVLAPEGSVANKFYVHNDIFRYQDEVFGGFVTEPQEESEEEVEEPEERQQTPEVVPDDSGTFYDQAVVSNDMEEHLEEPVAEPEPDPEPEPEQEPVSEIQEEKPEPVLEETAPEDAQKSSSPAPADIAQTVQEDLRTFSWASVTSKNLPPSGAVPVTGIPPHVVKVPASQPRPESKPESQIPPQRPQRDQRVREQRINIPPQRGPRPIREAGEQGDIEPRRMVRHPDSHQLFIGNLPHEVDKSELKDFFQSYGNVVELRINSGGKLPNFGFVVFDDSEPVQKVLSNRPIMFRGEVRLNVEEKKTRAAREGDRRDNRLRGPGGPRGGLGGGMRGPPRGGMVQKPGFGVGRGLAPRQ"}
{"Sequence": "AGUCCUGUGCUACACAUCGUAUGUACCGAAUCGGAAAAAGGAAAAAAAGGUUUUUGGAAAGUAUUAUGUUACGCCGUUCGGAUCUGCACU", "log2 enrichment": -0.114}
{"Sequence": "UAACUUUAGAGGAGGAUCUGAUGGAUAUGGCAGUGGACGUGGUUUUGGGGAUGGCUAUAAUGGGUAUGGAGGAGGACCUGGAGGUGGCAA", "log2 enrichment": -0.55}
{"Sequence": "UGGCCCUGGUGGCAUGCGGGGAGGAAGAGGUGGCCUCAUGGAUCGUGCUGGUCCCGGUGGAAUGUUCAGAGGUGGCCGUGGUGGAGACAG", "log2 enrichment": 0.315}
{"Sequence": "UCAGGAAGUAAAAACAAAUGGAAAUGCUUCGGAUAGUGGCAGGGGUGGGGGUUGCUAAGGAAAGGGUGGGAUGGGAGUGGGUAAAGAGUU", "log2 enrichment": 0.87}
{"Sequence": "UAAUUUAGAUCUUAAAGAAAAAGUGGAGCCUGAGGUUCUCAGCACUGAUACCCAAACUUCCCCAGAGCCAGGCACAAGGAUGAACAUUCU", "log2 enrichment": -0.197}
{"Sequence": "UGGCCCUGGUGGCAUGCGGGGAGGAAGAGGUGGCCUCAUUGAUCGUGGUGGUCCCGGUGGAAUGUUCAGAGGUGGCCGUGGUGGAGACAG", "log2 enrichment": 0.834}
{"Sequence": "UCCUGUGCUACACAUCGUAUGUACCGAAUCGGAAAAAAGGGGAAAAAAGGAAAAAAGGGAAAGUAUUAUGUUACGCCGUUCGGAUCUGCA", "log2 enrichment": 0.0653}
{"Sequence": "CUCAAGUCCUGUGCUACACAUCGUAUGUACCGAAUCGGGAGGGGAGGGGAGGGGAAAGUAUUAUGUUACGCCGUUCGGAUCUGCACUUCC", "log2 enrichment": 1}
{"Sequence": "UGUCUGCGGACCUGGUUUCAGCGCUGGUGGGACUGCAGCCGGAGGUCAGCCCAGCAGAGACUGCAGCUGGAGAGGGCAGUGCAACACCAC", "log2 enrichment": -0.448}
{"data": "Block 2", "target": "Sal-like protein 4, full length isoform A (SALL4, Homo sapiens, UniProt Q9UJQ4, residues 1-1053)", "method": "universal PBM", "molecule type": "double-stranded DNA, one strand shown", "medium": "in vitro", "concentration": "600 nM", "setting": "8-mer, flanks averaged, mean of replicates", "reading": "higher = stronger binding", "sequence of UniProt Q9UJQ4 (whole entry, looked up)": "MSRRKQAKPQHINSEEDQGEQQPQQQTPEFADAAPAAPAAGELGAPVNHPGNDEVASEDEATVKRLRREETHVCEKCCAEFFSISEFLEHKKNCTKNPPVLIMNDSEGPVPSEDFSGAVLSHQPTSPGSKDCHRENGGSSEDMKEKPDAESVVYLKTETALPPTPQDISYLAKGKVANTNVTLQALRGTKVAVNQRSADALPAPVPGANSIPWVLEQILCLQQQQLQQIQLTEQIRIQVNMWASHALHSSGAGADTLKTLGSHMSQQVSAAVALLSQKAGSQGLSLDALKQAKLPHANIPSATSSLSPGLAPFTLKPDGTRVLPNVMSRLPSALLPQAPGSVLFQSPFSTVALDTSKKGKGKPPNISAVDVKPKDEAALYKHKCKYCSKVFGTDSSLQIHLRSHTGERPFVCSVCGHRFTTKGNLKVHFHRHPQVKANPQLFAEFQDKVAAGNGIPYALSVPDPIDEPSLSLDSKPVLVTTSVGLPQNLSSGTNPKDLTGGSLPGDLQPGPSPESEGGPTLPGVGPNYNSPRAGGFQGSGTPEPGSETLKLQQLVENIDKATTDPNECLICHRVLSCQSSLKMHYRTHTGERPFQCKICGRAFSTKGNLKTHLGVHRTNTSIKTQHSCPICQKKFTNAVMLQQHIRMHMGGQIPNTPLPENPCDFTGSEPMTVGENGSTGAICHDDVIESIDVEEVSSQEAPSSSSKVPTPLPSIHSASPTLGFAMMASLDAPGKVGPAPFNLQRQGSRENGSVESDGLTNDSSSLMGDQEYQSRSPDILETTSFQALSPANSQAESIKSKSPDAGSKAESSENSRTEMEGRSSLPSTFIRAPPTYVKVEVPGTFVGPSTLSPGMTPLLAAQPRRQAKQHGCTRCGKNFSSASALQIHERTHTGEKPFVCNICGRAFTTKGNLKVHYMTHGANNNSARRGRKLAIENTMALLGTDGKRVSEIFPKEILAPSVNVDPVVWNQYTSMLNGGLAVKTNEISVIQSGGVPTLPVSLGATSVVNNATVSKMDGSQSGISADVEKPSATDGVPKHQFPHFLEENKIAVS"}
{"Sequence": "ATCTCATC", "E-score": 0.0854}
{"Sequence": "CGGTCGAG", "E-score": -0.246}
{"Sequence": "CGAGTGGC", "E-score": -0.214}
{"Sequence": "CCTAGCGA", "E-score": -0.192}
{"Sequence": "CCCATCCA", "E-score": -0.0878}
{"Sequence": "CAACGAGA", "E-score": 0.151}
{"Sequence": "AATGCGCC", "E-score": -0.137}
{"Sequence": "CGTTGGAA", "E-score": -0.0379}
{"Sequence": "AGGTCGAA", "E-score": -0.0677}
{"Sequence": "GTTTGGAA", "E-score": 0.162}
{"Sequence": "CTACTACC", "E-score": 0.0228}
{"Sequence": "CGAAGCCA", "E-score": -0.0971}
{"Sequence": "CTTAAATC", "E-score": 0.166}
{"Sequence": "GGGATCAC", "E-score": -0.263}
{"Sequence": "CTCGTTAA", "E-score": 0.0405}
{"Sequence": "AGGATTCG", "E-score": -0.0763}
{"Sequence": "ACCTACGC", "E-score": -0.227}
{"Sequence": "CGACACCA", "E-score": -0.169}
{"Sequence": "ATCCCCTG", "E-score": -0.163}
{"Sequence": "ATGAAACG", "E-score": 0.259}
{"Sequence": "AACCCTGA", "E-score": 0.0534}
{"Sequence": "CGTGTCGC", "E-score": -0.216}
{"Sequence": "CCCCTGAC", "E-score": -0.206}
{"Sequence": "CGCCAGCG", "E-score": -0.336}
{"Sequence": "CCCGGATA", "E-score": -0.179}
{"data": "Block 3", "target": "RNA binding protein fox-1 homolog 2, RRM domain, GST-SBP tag (RBFOX2, Homo sapiens, UniProt O43251-10, residues 100-194)", "method": "RNA Bind-n-Seq", "molecule type": "RNA", "medium": "in vitro", "concentration": "365 nM", "setting": "natural RNA segment, single round, ends assumed", "baseline": "no-protein control", "reading": "higher = stronger binding", "all sequences stand within": "GGGAGUUCUACAGUCCGACGAUC … UGGAAUUCUCGGGUGCCAA", "Residues (chain)": "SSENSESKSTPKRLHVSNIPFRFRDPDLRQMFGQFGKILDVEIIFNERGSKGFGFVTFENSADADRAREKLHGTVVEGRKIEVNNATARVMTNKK"}
{"Sequence": "GUCUUCAGCACUCCUGAGAAGUUGGCUCUUUACCCCUUCUCCUCUGCUGCCCCUCCUUCCUGCUGGUUCAGGUAGCCCCAGCCACGUGGGUUAGAGUCCUGUGCUGGCCU", "RBNS enrichment (R)": 0.336}
{"Sequence": "UUCAUUCAUGACUGCUAUGUCCUGAGAAAAGUUCCGAUUUCUUUUAACAAAUGUCAUCAUGAUUAAGGAAAUGUCUGGCACUUUAAUGGCAAAUUAAUUGAGAAUGUAUG", "RBNS enrichment (R)": 0.976}
{"Sequence": "GGGUUUGUCUCCAGAACAGAAGAGAAUGAUGGAUAUUCUGGCUCUGGGGCCCUCUCCACCACCACUCACAGUAGCCUUGCUGAAGCCAUCACAGAUGGGAGAAGGCCAUG", "RBNS enrichment (R)": 1.61}
{"Sequence": "AAAGGUUAACUUGGCCCGAAAAUAUUGCAGCAGCUUCAUGCAAGAAUUGCCACAGGACACUAUGGCCUUGCUGGGCUAGCAUUUGCUGCUGUAAUCUAGUUGCUCUGGUA", "RBNS enrichment (R)": 0.457}
{"Sequence": "UGUCCGUCCUCUGGGCGGCACAAGUCCCGCAGGCUCUGUGUCUGUUAGGUGAUGGAGCCCAUUCAAGGAGCAUUUGGUGUUGGGUCAGGGUUGCCAAUAGAACACUGUGU", "RBNS enrichment (R)": 0.442}
{"Sequence": "CUUGUAGGAAGAUCUUUUGUAUCAGGAACAUGUACACUAGGCCCUGUUCCCGUCCACAAGCUGAGCCAUAUGUACAUAAGCUAGACUGUUUUCUUAGGUGUGCACUUUUA", "RBNS enrichment (R)": 0.516}
{"Sequence": "GCUUCAGUGGCCACCAGCCUCGUCACAUACACCAGCAUCUUUCUGUACCUCCUCCCUUUGGUGACCUGAAGUCACUGUGACAGUUCUCCAGGAAGGAGGAGCUUCCUACU", "RBNS enrichment (R)": 0.719}
{"Sequence": "UCAGAAACUUUAUUUUAGCUGUCAAGCAGAGAAUAGCUUGAACUAUUCAGACUAUUGUUGGCACUGUUUAGUAGUGACCACACGCUCUUCUACCCGGGAAGGAACAUAUG", "RBNS enrichment (R)": 0.357}
{"data": "Block 4", "target": "Interferon regulatory factor 7, full length, phosphomimetic (IRF7, Homo sapiens, UniProt Q92985, residues 1-503, S101K/S471D/S472D/S475D/S476D/S477D/S483D/S484D/S487D)", "method": "protein-binding microarray", "molecule type": "double-stranded DNA, one strand shown", "medium": "in vitro", "concentration": "250 nM", "setting": "60-bp whole probe", "together with": "salmon DNA 0.4 mg/ml", "baseline": "random background probes", "reading": "higher = stronger binding", "all sequences stand within": "GCCTAGCAC … GTCTTGATTCGCTTGACGCTGCTG", "Target sequence (chain)": "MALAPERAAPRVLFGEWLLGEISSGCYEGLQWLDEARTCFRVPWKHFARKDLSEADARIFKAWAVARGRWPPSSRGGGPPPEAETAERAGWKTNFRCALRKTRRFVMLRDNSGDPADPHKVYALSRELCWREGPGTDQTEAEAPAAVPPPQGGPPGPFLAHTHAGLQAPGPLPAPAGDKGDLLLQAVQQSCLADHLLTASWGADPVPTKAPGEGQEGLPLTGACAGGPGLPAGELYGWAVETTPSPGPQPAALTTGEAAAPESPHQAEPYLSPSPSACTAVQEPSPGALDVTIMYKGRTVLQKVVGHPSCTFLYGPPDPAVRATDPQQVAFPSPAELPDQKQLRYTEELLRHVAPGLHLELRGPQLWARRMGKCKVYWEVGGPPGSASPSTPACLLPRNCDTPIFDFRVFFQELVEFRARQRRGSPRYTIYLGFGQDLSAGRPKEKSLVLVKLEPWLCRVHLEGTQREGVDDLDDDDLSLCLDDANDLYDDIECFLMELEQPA"}
{"Sequence": "TTTGGTCTCGGTATCGGTTAGTGCTAG", "log fluorescence [z-score]": 3.89}
{"Sequence": "TTAGGTCTCGCACTGGGTTAGTGCTAG", "log fluorescence [z-score]": 0.484}
{"Sequence": "TCATTTTTTTCATTATTACTGTGCTAG", "log fluorescence [z-score]": 1.08}
{"Sequence": "TCATTTTTTTTTTTTGGACTGTGCTAG", "log fluorescence [z-score]": 0.723}
{"Sequence": "GACGATTTCGGGTATCGAGTCGTGCTA", "log fluorescence [z-score]": 1.52}
{"Sequence": "GACGATAACAGTCTCGAGACGTGCTAG", "log fluorescence [z-score]": 0.335}
{"Sequence": "TGTGTTGCAGAAACGCCATGGTGCTAG", "log fluorescence [z-score]": 0.374}
{"Sequence": "GACGATCTGGGGTTTCGAGACGTGCTA", "log fluorescence [z-score]": 1.87}
{"Sequence": "ATGAGCCTCTGTTTTGAGCAGTGCTAG", "log fluorescence [z-score]": -0.193}
{"Sequence": "TCACGTGACCCTCTCAAACTGTGCTAG", "log fluorescence [z-score]": -0.153}
{"Sequence": "TTAGGTAGCGACTTTCGGTTAGTGCTA", "log fluorescence [z-score]": 0.6}
{"Sequence": "GACGGTATCCGTATCCTGACGTGCTAG", "log fluorescence [z-score]": 0.423}
{"Sequence": "GACGATATCAATATCGAGACGTGCTAG", "log fluorescence [z-score]": 0.102}
{"Sequence": "TCATGGCTCCCTATAAAACTGTGCTAG", "log fluorescence [z-score]": -0.515}
{"Sequence": "TTAAGTTTCGGTTCCGGTTAGTGCTAG", "log fluorescence [z-score]": 12.7}
{"Sequence": "TCAGATATAGGATAACGAGCCGTGCTA", "log fluorescence [z-score]": -0.401}
{"Sequence": "GACGGACTGCTTTTCCTGATGTGCTAG", "log fluorescence [z-score]": -0.0809}
{"Sequence": "TTAGATTTCAGACTGTATTAGTGCTAG", "log fluorescence [z-score]": 0.183}
{"Sequence": "TTAGGTCTCGGTTTCGGATAGTGCTAG", "log fluorescence [z-score]": 8.86}
{"note": "Some of these lines once more (block 2):"}
{"Sequence": "CGTTGGAA", "E-score": -0.0379}
{"Sequence": "ATCTCATC", "E-score": 0.0854}
{"Sequence": "AATGCGCC", "E-score": -0.137}
{"Sequence": "CGAAGCCA", "E-score": -0.0971}
{"Sequence": "CGACACCA", "E-score": -0.169}
